Experimental data of several laboratories.
Compare with care: the assays were run in different laboratories. ± marks the error that the study gave.
Target: Tyrosine-protein kinase ABL2 (ABL2, Homo sapiens, UniProt P42684)
UniProt P42684, sequence (whole entry, looked up): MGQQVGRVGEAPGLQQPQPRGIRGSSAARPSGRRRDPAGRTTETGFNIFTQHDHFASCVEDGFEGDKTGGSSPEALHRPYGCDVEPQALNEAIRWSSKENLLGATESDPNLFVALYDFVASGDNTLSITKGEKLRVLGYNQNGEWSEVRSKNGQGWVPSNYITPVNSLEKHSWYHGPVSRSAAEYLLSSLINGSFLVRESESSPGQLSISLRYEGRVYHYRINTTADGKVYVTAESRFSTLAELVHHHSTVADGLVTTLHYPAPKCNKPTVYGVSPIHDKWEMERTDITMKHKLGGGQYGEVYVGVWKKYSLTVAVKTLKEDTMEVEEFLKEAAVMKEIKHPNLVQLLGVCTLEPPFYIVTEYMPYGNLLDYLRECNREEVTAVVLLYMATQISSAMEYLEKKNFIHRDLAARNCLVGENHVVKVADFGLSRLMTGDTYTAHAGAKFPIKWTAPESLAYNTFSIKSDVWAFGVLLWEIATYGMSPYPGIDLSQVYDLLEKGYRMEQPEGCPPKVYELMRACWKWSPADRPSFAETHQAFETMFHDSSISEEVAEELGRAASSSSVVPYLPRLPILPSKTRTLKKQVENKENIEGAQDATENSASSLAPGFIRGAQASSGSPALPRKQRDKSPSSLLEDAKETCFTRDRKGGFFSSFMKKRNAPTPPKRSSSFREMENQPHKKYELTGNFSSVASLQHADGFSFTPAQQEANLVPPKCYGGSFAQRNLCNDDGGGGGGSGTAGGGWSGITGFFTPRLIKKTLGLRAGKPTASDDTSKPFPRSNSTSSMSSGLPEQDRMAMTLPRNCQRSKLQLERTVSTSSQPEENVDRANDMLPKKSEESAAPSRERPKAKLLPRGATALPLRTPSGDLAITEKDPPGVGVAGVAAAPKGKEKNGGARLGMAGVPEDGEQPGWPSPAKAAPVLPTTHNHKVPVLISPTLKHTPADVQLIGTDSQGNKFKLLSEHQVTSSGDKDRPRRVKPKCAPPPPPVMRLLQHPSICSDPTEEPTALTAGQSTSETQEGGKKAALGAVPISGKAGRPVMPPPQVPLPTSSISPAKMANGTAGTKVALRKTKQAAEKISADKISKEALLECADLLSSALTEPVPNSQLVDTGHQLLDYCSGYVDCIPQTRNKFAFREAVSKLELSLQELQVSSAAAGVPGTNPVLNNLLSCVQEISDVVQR

C=CC(=O)N1CCC[C@@H](n2nc(-c3ccc(Oc4ccccc4)cc3)c3c(N)ncnc32)C1
remaining activity (10 µM): 548%

[2H]c1cc(C)c(NC(=O)c2cnc(Nc3cc(N4CCCCC4)nc(C)n3)s2)c(Cl)c1
inhibition (0.01 µM): > 90%

C=CC(=O)N1CCC(COCC(=O)N2CCN(c3nc(-c4cnc(N)nc4C(F)F)nc(N4CCOC[C@@H]4C)n3)CC2)CC1
remaining binding (KINOMEscan; 1 µM): 93%

C=CC(=O)N1CCC([C@@H]2CCNc3c(C(N)=O)c(-c4ccc(Oc5ccccc5)cc4)nn32)CC1
remaining activity (kinase activity, inhibitor, HotSpot radiometric; 100 nM, added: ATP 10 µM): 90.1 ± 0.4%

Cc1cc(Nc2cc(N3CCN(C)CC3)nc(Sc3ccc(NC(=O)C4CC4)cc3)n2)[nH]n1
remaining activity (kinase activity, KinaseProfiler; 0.03 µM, species human; baseline: control): 27%

C=CC(=O)N1CCC[C@@H](n2nc(-c3ccc(Oc4ccccc4)cc3)c3c(N)ncnc32)C1
remaining activity (kinase activity, inhibitor, HotSpot radiometric; 100 nM, added: ATP 10 µM): 76.4 ± 0.4%

CNc1ncc2c(/C=C/C(=O)N3CCC(OC)CC3)nn(Cc3cccc(C(F)(F)F)c3)c2n1
remaining activity (kinase activity, inhibitor; 1 µM; baseline: untreated control): 95%

COc1cc(-c2cncc3c2CN(C)Cc2cc(N4CCNCC4)ccc2-3)cc(OC)c1OC
remaining activity (kinase activity; 1 µM, human enzyme, added: ATP 10 µM; baseline: DMSO control): 96%

O=C(NC1CCC1)c1ccc2nc(-c3cccc(NS(=O)(=O)NCCN4CCCCC4)c3)cn2c1
remaining activity (enzyme activity; 10 µM): 100%

CC#CC(=O)N1CCC[C@H]1c1nc(-c2ccc(C(=O)Nc3ccccn3)cc2)c2c(N)nccn12
remaining activity (kinase activity, inhibitor, HotSpot radiometric; 100 nM, added: ATP 10 µM): 95.5 ± 2.1%

Excerpt of the above:
CNc1ncc2c(/C=C/C(=O)N3CCC(OC)CC3)nn(Cc3cccc(C(F)(F)F)c3)c2n1
remaining activity (kinase activity, inhibitor; 1 µM; baseline: untreated control): 95%
